# Assay results collected from several papers.
# Every numbered part comes from another study and shows a few of its results, in no order.

# Series 1
# Target: RING finger protein unkempt homolog, zinc fingers 1-6, GST-SBP tag (UNK, Homo sapiens, UniProt Q9C0B0, residues 30-357)
# Technique: RNA Bind-n-Seq
# Molecule type: RNA
# Medium: in vitro
# Tested at: not given
# Setting: RNA with constant flanks, ends assumed
# Baseline: input RNA pool
# Direction: higher = stronger binding
# All sequences stand within: GGGAGUUCUACAGUCCGACGAUC … CAACAGAGGAUUGAGCAUCA
# Target sequence (chain): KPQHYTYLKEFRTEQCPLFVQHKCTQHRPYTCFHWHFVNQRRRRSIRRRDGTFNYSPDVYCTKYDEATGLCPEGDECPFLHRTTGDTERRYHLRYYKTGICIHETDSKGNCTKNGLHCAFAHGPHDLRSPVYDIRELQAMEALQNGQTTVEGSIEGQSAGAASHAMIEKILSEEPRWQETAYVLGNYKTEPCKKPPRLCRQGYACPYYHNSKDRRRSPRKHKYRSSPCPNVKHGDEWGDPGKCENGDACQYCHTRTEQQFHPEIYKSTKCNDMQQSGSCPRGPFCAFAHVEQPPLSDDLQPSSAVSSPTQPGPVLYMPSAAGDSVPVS
Sequence,bound/input enrichment [ratio]
UAUCUUAAUGACUUGGACCGCGUAGCUGACCCUGCCUACCUGCCUACGCAACAAGAUGUGCUCCGAGUUCGAGUCCCCACCACAGGGAUCAUCGAAUACCCCUUUGACUUACAAAGUGUC,0.128
AUUUUUUCAGUGUGCCCCAAGGGCAUUAAUGAGCCUUUAUAACUGAGAAAUGAUUCUUGUUACCGUAAUUAUUCCAUAAAUGAUACCACUAGAUAAAUUACCUUGGGUUAAUAGCUCCAG,3.35
CAAACCAGAAAUACCUCAGAAUUUUCUACUUGUGUAUGUUUUAUUAAUUAUAUAUUUUGUCCGUUGUGUUGUCUUGUAGGAAGUAUAUUUUAAUGUAAGUUGACUUUUAUGACGAGGAAG,3.36
GAGACCCUGCGCAUGCACGCUGGCUCCCAGCUCACUAGGCUGUCACCCAGUCCUGUCAUUCUCCGACCAUUCAUCUGUCUGUCCAUUUUGCACGAAGAUUCCCCUCUCCUCCCCAACCCU,0.562
GGAAAGUAUGUGUAUGUAGUAACAGAACUUAUGAAAGGAGGUGAAUUGCUGGAUAAAAUUCUCCGACAAAAAUUUUUCUCUGAACGAGAGGCCAGUGCUGUCCUGUUCACUAUAACUAAA,0.445
AGAGACAUGUUGCGGCGGAUUAAGGAAGAUGAAGAUGACAAGACAGUCAUGGAUCUUGCUGCCGUUUUGUUUGAAACGGCAACACUUCGGUCAGGAUAUCUUCUACCAGACACCAAGGCG,0.149
UUUAUGCACAUACUUAAAGGACAGAAAUGUCUGGUAAAGUAAUUGUUAAAUAAUGAUAUGCCGCUUUUUAACUUUUUAAAUAAAUAAGAUUUUUUAAUGUGGGUCUCCCUCAGGGUUGUU,0.727
AUUUUUUUUUUUUUUUUUUUAAGAAUAUCUGUAAUGGUACUGACUUUGCUUGCUUUGAAGCCGCUCUUUUUUUUUUUUUUUUUUUUUUUUUGCAGUAACUGUUUUUUAAGUCUCUCGUAG,1.74
GACUUGCUUCUACAGGCUUGUCCUUUGGGUACUUUAUUGGAUGCUAACUUGCAGAAUUCACUGAACCGCAUUAAUUCCGUAUCUGUGACUCAGCCGCAAAAACAGCCAGCCUGGAAAGUU,0.0998
CAGCUUCGGCAGGACAUAGUUGCAGGACGUCUGCCCUGUUCCUUUGCAACCUUAGCAUUAUCCGGUUCUUACACCAUCCAGUCUGAACUGGGAGACUACGACCCAGAACUCCAUGGCGUG,0.202
ACCGUGCACAUUGCAUGUACUCCUCAGGCUGCCAAGGCAAUAAGCAACAAGGACCAGCACCGCAUAUCAUAUACUUUAUCUCGAGCCCAGACGGUGGUGGUUGAAUAUACUCAUGACAGC,0.208

# Series 2
# Target: Histone acetyltransferase KAT6A, winged helix 1, GST fusion (KAT6A, Homo sapiens, UniProt Q92794, residues 1-85)
# Technique: protein binding microarray
# Molecule type: double-stranded DNA, one strand shown
# Medium: in vitro
# Tested at: not given
# Setting: 8-mer, flanks averaged, mean of 2 arrays, mostly near background
# Baseline: not given
# Direction: higher = stronger binding
# Target sequence (chain): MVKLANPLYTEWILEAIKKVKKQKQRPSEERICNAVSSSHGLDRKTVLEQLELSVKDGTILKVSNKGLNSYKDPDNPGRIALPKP
Sequence,E-score
CACAAGTC,-0.109
CTCACATC,-0.134
AAGGTATC,-0.166
AACTGACA,-0.0746
AGTGGGTG,-0.0538
CTACACGA,-0.117
CCAAGAGG,-0.217
AGTGCTAC,-0.225
CTCGTTGC,-0.076
ACCAGGGG,-0.0503
CGCAAGAG,0.0934
TACTGCGA,-0.0897
CTCGTATA,-0.08
CTCTCAAG,-0.278
GATCTCCA,-0.219
AAGTGTCT,-0.205
ACCAAAAG,-0.161
CCGGCGAA,0.252
CTTAACGC,0.0882
CTTCGTAA,-0.0986
CTTAATGC,-0.0353
CGGGCTCC,0.227
AACAACAC,-0.168
ATGATGAA,-0.285
TACAGCGA,-0.0483

# Series 3
# Target: Interferon regulatory factor 5, full length, phosphomimetic (IRF5, Homo sapiens, UniProt Q13568-2, residues 1-514, S451D/S453D/S456D/S462D)
# Technique: protein-binding microarray
# Molecule type: double-stranded DNA, one strand shown
# Medium: in vitro
# Tested at: 940 nM top
# Setting: 60-bp whole probe
# With: salmon DNA 0.4 mg/ml
# Baseline: random background probes
# Direction: higher = stronger binding
# All sequences stand within: GCCTAGCAC … GTCTTGATTCGCTTGACGCTGCTG
Sequence,fitted relative affinity
ATGGAAATCTCAATGGGTTAGTGCTAG,0.00439 z-score
TTAGGTATCGGTTTCGGGTAGTGCTAG,10.7 z-score
GCCGGACTGCTACTGCTGACGTGCTAG,-0.824 z-score
TCAATTTTTGCTTACGAACTGTGCTAG,0.259 z-score
TTAGGGTTCGGGACTGGGTTAGTGCTA,-0.263 z-score
TTAGGCTTCCTTATCCTTTAGTGCTAG,0.162 z-score
TTAGGTCTCCTTATCATTTAGTGCTAG,0.704 z-score
TTAGGTATCCTACTGCTTAAGTGCTAG,-0.168 z-score
CACGGACTGGGGACTGGGGACGTGCTA,-0.469 z-score
TTAGGACTGGGTATCCGTTAGTGCTAG,-0.0586 z-score
TTAGATATCGGGAATGGATTAGTGCTA,-0.0495 z-score
GGCGATTTCAGTATCGAGACGTGCTAG,3.24 z-score
TCAATTCTCACTGCAGCACTGTGCTAG,1.62 z-score
GACGAACTGACACTGGAGACGTGCTAG,-0.672 z-score
TTAGAACTGAGACTGGATTGGTGCTAG,0.0214 z-score
TTAGGACTGGGGTTTCGGTAAGTGCTA,4.18 z-score
GAGGATCTCAGACTGGAGACGTGCTAG,-0.588 z-score
TTAGGTTTCCATTTCCTTTAGTGCTAG,2.16 z-score
TCACCTATAGGGCCTGACACTGTGCTA,-0.107 z-score
GACGGTCTCGGTATCGGGCCGTGCTAG,4.45 z-score
CTTCCTTTACTTTCTTTTTTGTGCTAG,2.64 z-score
TCAGTCTTGGTTCTCAGACTGTGCTAG,1.23 z-score
TCAAGTTTTCTTTTCCAACTGTGCTAG,1.05 z-score
TTGTCTCCCCCATCTTGTTCCGTGCTA,1.06 z-score
TCAGGTATAGCACTAAGACTGTGCTAG,-0.471 z-score

# Series 4
# Target: RNA binding protein fox-1 homolog 2, RRM domain, GST-SBP tag (RBFOX2, Homo sapiens, UniProt O43251-10, residues 100-194)
# Technique: RNA Bind-n-Seq
# Molecule type: RNA
# Medium: in vitro
# Tested at: 365 nM
# Setting: natural RNA segment, single round, ends assumed
# Baseline: no-protein control
# Direction: higher = stronger binding
# All sequences stand within: GGGAGUUCUACAGUCCGACGAUC … UGGAAUUCUCGGGUGCCAA
# Residues (chain): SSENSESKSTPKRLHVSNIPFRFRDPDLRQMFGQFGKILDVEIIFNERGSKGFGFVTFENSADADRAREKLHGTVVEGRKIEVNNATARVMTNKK
Sequence,RBNS enrichment (R)
GAUGUGGUUAAAAUUUUUGUAAUAUAUUUAAAUGUAUAUUUUUGAGAGAGAUACUACAUUGCCAAGGACUUUAUAAAUAAUCUUAAAUUAACUUACAAAUUUAUAAGAUG,0.757
CUUUCCCUGUGUGGUCUGCCCUCCACCUCUGAGGCCAGCUCAUCAGAUCUGACCUGCCUGAGACAACCCAGGUAAUUUGGGGUUUGAUCAGAGGUCUAAUGGUAGCAAAC,0.251
GAUCUGCCAUAAAUUCUUCCUAAAUAAUUUGUUUACUAACUCUUUAGGCCACUGUGCUUUGCGGUCCAUUAGUAAACUUGUGUUGCUAAGUGCUAAACAGAAUACUGCUA,0.293
UUCAUGGCUCACCCCUCUGUGUCCAGCAUCUAACCUUUUACUUCUGUGUAGGAAAUAAUUUAAUUACAAGUCCAGGAAUGGUCUGCUCUACUCAUGGGUGGAGGAGACCA,0.401
UUUUUCAACCCCCCUUUUUCAUUAAUCUGUUCUUAAAACUUCUUUUUACUGGCUUUCAUACUUAGCAUUCCAGUGAAAUGUUCUUAGACUCACCAGUGGACAAAUAAUAA,0.379
GGGUGCUGCCCUCAGGGACUGCACCCUGACAAGUGUUAAGGCAACAUUCCUUUCUUGUGCCCUGGGCCAAAACCAAUGCUGAUGACCUUAUCAGCUUCCUGUUUCUUCCC,0.221
AUGAAGCAAAUUUUUUUUUCCACCAUGCUUUAUGUGAUUGUAUUUAAAUUGAUGUGUUAUUAUGUCAAAAGCCGGAUCUAUUAAAGAAACAAUUGGCCUUUCUGAGCUGA,0.532
CAGUCUUAAUUUUUAAAUAUCUGAUCAUUUUAUAUUGUCCGAUCAUUUCAGCACCUCCAAAGGGUCCUAGGAUAUUCUGCCUCUCUCUUCACCCUGUCCCCAGACGGGGG,0.518
ACAGUCCUAGAAGGUAUGUUUUAAGAAUACUGUGUAGUACACAUUAUUGCAACAUACACCUGAGAUUUAACAAGGCCCCAAAUGACAGGAAUGUCAUAACCAUUCACACU,0.219
GUGAGGGCUCCGGGUGGUGCUAUGACGUGGAACUGGAUAUUGAGUAAUAAAUUUGCUGUGGUUUGUACCCGGUGUUGUCUGUUGCCUGGAAGUUGGGAAGCUGAGUUACU,1.2
GAAGAGUUUAAAGAGAAAAGGGAAAAAAGAAAGAAAAAGUAAGCAGGGCUGGCUUCGCCCGCGUUCUCGUCGUCGGAUCAAGGAGCGCGGCGGCGUUUUGGACCCGCGCU,1.41
AGCUAUCUUGAGUGAAAGUCCUCACUGACGAGUAUGCAAACCAAAUAGCCUCCUGCACAGUAGCCUCUCCUUCCUGUCACCAAAACAGUUUUAGGUCUGCUGAAGUCUGG,0.372

# Excerpt of the above (series 3):
Sequence,fitted relative affinity
TTAGGTATCCTACTGCTTAAGTGCTAG,-0.168 z-score
CACGGACTGGGGACTGGGGACGTGCTA,-0.469 z-score
TTAGGACTGGGTATCCGTTAGTGCTAG,-0.0586 z-score
TTAGATATCGGGAATGGATTAGTGCTA,-0.0495 z-score
GGCGATTTCAGTATCGAGACGTGCTAG,3.24 z-score
TCAATTCTCACTGCAGCACTGTGCTAG,1.62 z-score
GACGAACTGACACTGGAGACGTGCTAG,-0.672 z-score
TTAGAACTGAGACTGGATTGGTGCTAG,0.0214 z-score
TTAGGACTGGGGTTTCGGTAAGTGCTA,4.18 z-score
GAGGATCTCAGACTGGAGACGTGCTAG,-0.588 z-score
TTAGGTTTCCATTTCCTTTAGTGCTAG,2.16 z-score
